Experimental data collected from several papers.
Each line is one published result; not all experiments were run side by side. Several values in a cell are separate wells, animals, samples, runs or records. ± gives the spread as reported.
Chain of UniProt Q16539 (whole entry, looked up): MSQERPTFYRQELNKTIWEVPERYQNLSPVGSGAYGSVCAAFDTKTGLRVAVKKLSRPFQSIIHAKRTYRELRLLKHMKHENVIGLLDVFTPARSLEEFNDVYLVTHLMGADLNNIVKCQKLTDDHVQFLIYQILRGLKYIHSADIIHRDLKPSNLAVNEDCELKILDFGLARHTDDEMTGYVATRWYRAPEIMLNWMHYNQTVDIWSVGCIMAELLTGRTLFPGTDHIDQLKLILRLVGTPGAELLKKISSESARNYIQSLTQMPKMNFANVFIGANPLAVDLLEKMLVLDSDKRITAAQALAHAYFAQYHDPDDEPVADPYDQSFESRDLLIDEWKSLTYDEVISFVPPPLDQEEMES
Chain of UniProt P54764 (whole entry, looked up): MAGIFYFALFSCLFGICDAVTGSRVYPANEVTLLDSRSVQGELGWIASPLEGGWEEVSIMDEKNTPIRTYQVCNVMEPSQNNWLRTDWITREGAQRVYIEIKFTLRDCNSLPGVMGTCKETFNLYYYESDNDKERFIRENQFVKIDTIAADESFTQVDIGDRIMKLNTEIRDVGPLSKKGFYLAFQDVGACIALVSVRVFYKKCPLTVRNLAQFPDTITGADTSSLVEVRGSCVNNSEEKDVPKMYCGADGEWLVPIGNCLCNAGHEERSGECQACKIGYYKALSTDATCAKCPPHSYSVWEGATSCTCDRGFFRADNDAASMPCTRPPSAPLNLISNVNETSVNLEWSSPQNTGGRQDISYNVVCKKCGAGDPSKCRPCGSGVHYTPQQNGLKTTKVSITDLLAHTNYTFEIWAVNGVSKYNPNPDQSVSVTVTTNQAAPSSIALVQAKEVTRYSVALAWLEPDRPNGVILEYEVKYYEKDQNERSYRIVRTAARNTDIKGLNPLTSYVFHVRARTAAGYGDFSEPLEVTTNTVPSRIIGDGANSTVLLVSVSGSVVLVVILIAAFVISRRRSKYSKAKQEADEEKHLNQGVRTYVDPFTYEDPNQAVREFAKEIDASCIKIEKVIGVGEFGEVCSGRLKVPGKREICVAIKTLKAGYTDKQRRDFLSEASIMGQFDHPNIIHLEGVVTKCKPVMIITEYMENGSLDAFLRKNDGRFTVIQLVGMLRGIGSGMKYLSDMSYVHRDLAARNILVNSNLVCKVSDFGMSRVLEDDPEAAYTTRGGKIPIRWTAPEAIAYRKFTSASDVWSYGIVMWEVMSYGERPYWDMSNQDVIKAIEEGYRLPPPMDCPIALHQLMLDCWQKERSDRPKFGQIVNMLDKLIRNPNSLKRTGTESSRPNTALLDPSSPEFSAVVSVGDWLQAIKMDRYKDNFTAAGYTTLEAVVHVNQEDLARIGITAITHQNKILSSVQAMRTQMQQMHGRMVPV
Chain of UniProt Q8TDX7 (whole entry, looked up): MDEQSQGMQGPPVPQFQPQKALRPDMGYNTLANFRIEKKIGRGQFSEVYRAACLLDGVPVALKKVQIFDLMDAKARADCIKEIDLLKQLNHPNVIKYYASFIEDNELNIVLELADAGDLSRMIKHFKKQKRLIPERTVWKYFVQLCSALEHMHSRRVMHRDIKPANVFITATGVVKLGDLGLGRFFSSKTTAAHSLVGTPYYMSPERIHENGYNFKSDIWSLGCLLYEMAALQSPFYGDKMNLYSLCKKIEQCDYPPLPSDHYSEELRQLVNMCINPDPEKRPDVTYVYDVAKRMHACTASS

For CC(C)C12OC1C1OC13C1(C)CCC4=C(COC4=O)C1CC1OC13C2OC(=O)CCCOC1OC(CO)C(O)C(O)C1O (stereo not drawn), the IC50 was 0.54 µM (A253; cell growth or viability, XTT; 47 h).
The selectivity ratio of CC(C)[C@H](NC(=O)[C@H](CCCNC(=N)N)NC(=O)[C@@H]1CCCN1C(=O)[C@@H](NC(=O)[C@H](C)NC(=O)[C@H](Cc1ccc(O)cc1)NC(=O)[C@H](CCC(N)=O)NC(=O)[C@H](CCCCN)NC(=O)[C@H](CCCNC(=N)N)NC(=O)[C@@H]1CCCN1C(=O)[C@H](CCC(=O)O)NC(=O)[C@@H](NC(=O)[C@H](C)N)[C@@H](C)O)[C@@H](C)O)C(=O)N[C@@H](Cc1ccccc1)C(=O)N[C@@H](Cc1c[nH]c2ccccc12)C(=O)N[C@H](C(=O)N[C@@H](CC(=O)O)C(=O)N[C@@H](C)C(=O)N1CCC[C@H]1C(=O)NCC(=O)NCCOCCOCCOCCOCCOCCOCCOCCOCCOCCOCCOCCOCCC(=O)N[C@@H](CS)C(N)=O)[C@@H](C)O is reported as 2.7 ± 1.1 (SKOV3 ovarian cancer; cell binding, phage binding, item: output/input phage; 10 min, 37 °C; baseline: control phage).
COc1ccccc1-c1n[nH]c2nc(NC3CCN(C(=O)Cc4ccc(F)cc4F)CC3)ncc12 gave a relative abundance of 1.04 (bead binding, competition bead pull-down, item: LINJ.24.2150; Leishmania donovani extract; 10 µM; baseline: vehicle).
The inhibition of CN(C)[C@H]1C[C@@]23CC[C@@]4(O2)C(=CC[C@]2(C)[C@@H](c5ccc6ccncc6c5)CC[C@H]24)C=C3[C@@H](O)[C@@H]1O is reported as 11.1% (MAPK14 (Homo sapiens, UniProt Q16539); ATP probe labelling, inhibitor, KiNativ profiling; 0.1 µM).
With O=C1NC(=O)c2c1c1cc(F)c[n+]3c1c1c2c2cc(O)ccc2[n]1[Ru-4]312([N]=C=S)[S+]3CC[S+]1CC[S+]2CC3 (stereo not drawn) the remaining activity was 64% (NEK7 (Homo sapiens, UniProt Q8TDX7); enzyme activity; 100 nM, human enzyme, together with: 10 µM ATP; baseline: untreated).
For NC(=S)N/N=C/c1ccc(OCc2ccccc2)cc1, “catalase activity (OD450)” read 0.045 a.u. (IMR-32; 200 µg/mL, 24 h; higher = more activity).
The GI50 of CC(C)(C)C(=O)OCOP(=O)(OCOC(=O)C(C)(C)C)C1CCCN(O)C1=O (stereo not drawn) is reported as 0.36 µM (RXF 393).
Cc1cc(Oc2nc(N3CC[C@@H](c4ccncc4)C3)ncc2F)[nH]n1 gave an IC50 of 77.6 µM (brain cancer cell lines; cell proliferation; average over lines).
With CS(C)(=O)=Nc1ccc(-c2ccc(-c3nc4cc(O[C@@H]5CO[C@H]6[C@@H]5OC[C@H]6O)[nH]c4cc3F)cc2)cc1 the inhibition was -12% (EPHA4 (Homo sapiens, UniProt P54764); enzyme activity, inhibitor; 10 µM).
With CSCC[C@H](NC(=O)[C@@H](NC(=O)[C@H](CCC(N)=O)NC(=O)[C@H](CO)NC(=O)[C@@H](N)C(C)C)[C@@H](C)O)C(=O)N[C@@H](CCCNC(=N)N)C(=O)N[C@@H](CCC(N)=O)C(=O)N[C@H](C(=O)N[C@@H](C)C(=O)N[C@H](C(=O)N1CCC[C@H]1C(=O)N[C@@H](CC(C)C)C(=O)N[C@@H](CC(C)C)C(=O)N[C@@H](Cc1c[nH]c2ccccc12)C(=O)N[C@@H](Cc1ccccc1)C(=O)N[C@@H](Cc1c[nH]c2ccccc12)C(=O)N[C@H](C(=O)NCC(=O)N[C@@H](CO)C(=O)N[C@@H](CC(C)C)C(=O)NCCOCCOCCOCCOCCOCCOCCOCCOCCOCCOCCOCCOCCC(=O)N[C@@H](CS)C(N)=O)[C@@H](C)O)C(C)C)[C@@H](C)O the selectivity ratio was 1.8 ± 0.64 (HCC461; phage binding; baseline: targeting over control phage).
The colony survival of COc1ccccc1-c1ccncc1C(=O)Nc1nnc(OCc2ccc(Cl)cc2)s1 is reported as 86.1% (RPE-1 BRCA1 WT parental; 0.06 µM, run 1; baseline: untreated).
For CC(=O)NCSC[C@H](NC(=O)[C@@H]1CCCN1C(=O)[C@H](C)NC(=O)[C@@H](NC(=O)CNC(=O)[C@@H](NC(=O)[C@H](Cc1c[nH]c2ccccc12)NC(=O)[C@H](C)NC(=O)CNC(=O)[C@H](CO)NC(=O)[C@H](C)NC(=O)[C@@H]1CCCN1C(=O)[C@H](Cc1c[nH]c2ccccc12)NC(=O)[C@H](C)NC(=O)[C@H](C)NC(=O)[C@@H](N)Cc1ccc(O)cc1)[C@@H](C)O)[C@@H](C)O)C(=O)N[C@@H](CO)C(=O)N[C@@H](C)C(=O)NCC(=O)N[C@H](C(=O)NCCOCCOCCOCCOCCOCCOCCOCCOCCOCCOCCOCCOCCC(=O)N[C@@H](CS)C(N)=O)[C@@H](C)O, the selectivity ratio was 1.6 ± 0.29 (Calu-3; phage binding; baseline: targeting over control phage).
COc1ccccc1-c1n[nH]c2nc(N[C@H]3CC[C@H](NS(=O)(=O)CC(C)C)CC3)ncc12 gave a relative abundance of 1.29 (bead binding, competition bead pull-down, item: LMJF.05.0030; Leishmania donovani extract; 10 µM; baseline: vehicle).
CC[C@H](C)[C@H](NC(=O)[C@H](C)NC(=O)CNC(=O)[C@H](Cc1ccccc1)NC(=O)[C@H](CC(N)=O)NC(=O)[C@H](CC(N)=O)NC(=O)[C@H](CO[C@@H]1O[C@H](CO)[C@@H](O)[C@H](O)[C@H]1NC(C)=O)NC(=O)[C@H](CO)NC(=O)[C@H](Cc1c[nH]cn1)NC(=O)[C@@H](NC(=O)[C@H](CC(C)C)NC(=O)[C@H](Cc1ccccc1)NC(=O)[C@H](CC(N)=O)NC(=O)[C@H](C)NC(=O)[C@@H](N)CC(C)C)C(C)C)C(=O)N[C@@H](CC(C)C)C(N)=O has a viability of 78.4% (INS-1; MTT; 10 equivalents to hIAPP, 24 h, together with: hIAPP 1 µM).
O=C(C[Se]C(=O)c1cccs1)Nc1cccc(C(F)(F)F)c1 has a CC50 of 11 µM (NCI60 leukaemia subpanel; NCI60 five-dose screen).
CC[C@H](C)[C@H](NC(=O)[C@H](CO)NC(=O)[C@H](Cc1ccc(O)cc1)NC(=O)[C@H](Cc1ccc(O)cc1)NC(=O)[C@H](CC(N)=O)NC(=O)CNC(=O)[C@H](CO)NC(=O)[C@H](Cc1ccc(O)cc1)NC(=O)[C@H](CO)NC(=O)[C@H](CO)NC(=O)[C@H](CC(N)=O)NC(=O)COCCOCCNC(=O)CN1CCN(CC(=O)O)CCN(CC(=O)O)CCN(CC(=O)O)CC1)C(=O)N[C@@H](CC(C)C)C(N)=O [copper-64 labelled] has a tumour uptake of 13.5 %ID/mL (dynamic PET; mouse, tamoxifen-induced PDAC, tumor; intravenous, 0.1 µg/mouse, 5.5 min).
For N[C@H](C(=O)N1CCCC1)C1CCN(c2nccc3c(-c4ncc(Cl)cc4Cl)cccc23)CC1, the inhibition was 11.9% and 7.97% and 4.38% and 22.3% (human neutrophils; protein citrullination, inhibitor, flow cytometry, item: citrullinated proteins; 100 nM, together with: ionomycin).
The sub-G0 cells of O=C(O)c1ccc(-c2nc(-c3ccccc3Cl)c3sccn23)cc1 is reported as 1.46% and 1.14% (K562; flow cytometry; concentration not given; baseline: cells).
CC1CCC2C(C)C(OC(=O)CCC(=O)N3CCC(Nc4ccc(S(=O)(=O)NC(=O)c5ccc(N6CCN(CC7=C(c8ccc(Cl)cc8)CC(C)(C)CC7)CC6)cc5Oc5cnc6[nH]ccc6c5)cc4[N+](=O)[O-])CC3)OC3OC4(C)CCC1C32OO4 (stereo not drawn) — result for “early apoptotic cells”: 58.3% (THP-1; annexin V/PI flow cytometry, item: annexin V+/PI-; 1.6 µM, 24 h).
O=C(C[Se]C(=O)c1ccccc1)Nc1cccc(C(F)(F)F)c1 has a GI50 of 2.67 µM (NCI60 leukaemia subpanel; NCI60 five-dose screen).
Cc1cc(C(=O)Nc2nc3cccc(C)c3n2[C@H]2CCCCN(C(=O)/C=C/CN(C)C)C2)ccn1 — result for “cells in G2 phase”: 29.8% (Trypanosoma brucei; propidium iodide flow cytometry; bloodstream form; concentration not given, 3 h).
O=C1NC2(CC2)COc2ncc(F)cc2[C@H]2COCCN2c2ccn3ncc1c3n2 — result for “serum total bilirubin”: 0.9 ± 0.4 µmol/L (Sprague-Dawley rat, female, serum; oral, 20 mg/kg/day, end of treatment, 4-week subacute toxicity).
With O=C(C[Se]C(=O)c1ccco1)Nc1cccc(C(F)(F)F)c1 the GI50 was 5.63 µM (NCI60 leukaemia subpanel; NCI60 five-dose screen).
CC(C)CC(O)(CC(C)C)c1cn(C(=O)N2CCCC2)nn1 gave a protein level of 1.04 and 1.11 (mouse T-cells; SILAC proteomics, item: Oxsr1; 1 nM, 6 h, single peptides, unit not given; baseline: DMSO).

For quick reference, copied from above:
O=C(C[Se]C(=O)c1cccs1)Nc1cccc(C(F)(F)F)c1 has a CC50 of 11 µM (NCI60 leukaemia subpanel; NCI60 five-dose screen).
CC[C@H](C)[C@H](NC(=O)[C@H](CO)NC(=O)[C@H](Cc1ccc(O)cc1)NC(=O)[C@H](Cc1ccc(O)cc1)NC(=O)[C@H](CC(N)=O)NC(=O)CNC(=O)[C@H](CO)NC(=O)[C@H](Cc1ccc(O)cc1)NC(=O)[C@H](CO)NC(=O)[C@H](CO)NC(=O)[C@H](CC(N)=O)NC(=O)COCCOCCNC(=O)CN1CCN(CC(=O)O)CCN(CC(=O)O)CCN(CC(=O)O)CC1)C(=O)N[C@@H](CC(C)C)C(N)=O [copper-64 labelled] has a tumour uptake of 13.5 %ID/mL (dynamic PET; mouse, tamoxifen-induced PDAC, tumor; intravenous, 0.1 µg/mouse, 5.5 min).
